Measurements gathered from unrelated publications.
A part holds a random share of what one study measured. Changes are numbered by the printed parent chain.

Series 1
Target: UBE2E1 UBC core domain (UniProt P51965)
Sequence of UniProt P51965 (whole entry, looked up): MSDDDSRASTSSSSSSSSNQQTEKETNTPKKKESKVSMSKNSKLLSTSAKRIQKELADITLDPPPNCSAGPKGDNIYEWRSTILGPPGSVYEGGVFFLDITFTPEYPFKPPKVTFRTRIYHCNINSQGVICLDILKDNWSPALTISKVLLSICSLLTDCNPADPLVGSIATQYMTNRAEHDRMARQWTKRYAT
Technique: yeast two-hybrid
Medium: yeast
Notes: mostly zero background
Reference: not given
Reading: higher = stronger interaction
B1: Ltn1 RING domain (UniProt Q6A009); chain VDKRFEGVEDCMICFSVIHGFNYSLPKKACRTCKKKFHSACLYKWFTSSNKSTCPLCRETFF
B2: TRIM48 RING domain (UniProt Q8IWZ4); chain ISQVFQRELTCPICMNYFIDPVTIDCGHSFCRPCFYLNWQDIPILTQCFECIKTIQQRNLKT
B3: RNF181 RING domain (UniProt Q9P0P0); chain VIRGSQAELKCPVCLLEFEEEETAIEMPCHHLFHSSCILPWLSKTNSCPLCRYELPTDDDTY
B4: ZNRF3 RING domain (UniProt Q9ULT6); chain DTLSSSSTSDCAICLEKYIDGEELRVIPCTHRFHRKCVDPWLLQHHTCPHCRHNIIEQKGNP
For `ALDRLEKLLRCSRCTNILREPVCLGGCEHIFCSNCVSDCIGTGCPVCYTPAWIQDLKI (BARD1 RING domain (UniProt Q99728))`, “lacZ reporter activity” read 0.
For `KEQLEKHNDICAICYQDMKSAVITPCSHFFHAGCLKKWLYVQETCPLCHCHLKNSSQLP (RNF145 RING domain (UniProt Q96MT1))`, “lacZ reporter activity” read 0.
`B1 (Ltn1 RING domain)` — result for “lacZ reporter activity”: 0.
For `QLRRLQEERTCKVCLDRAVSIVFVPCGHLVCAECAPGLQLCPICRAPVRSRVRTF (BIRC7 RING domain (UniProt Q96CA5))`, “lacZ reporter activity” read 0.
For `NTAPSLTVPECAICLQTCVHPVSLPCKHVFCYLCVKGASWLGKRCALCRQEIPEDFLDK (RNF146 RING domain (UniProt Q9NTX7))`, “lacZ reporter activity” read 0.
For `B2 (TRIM48 RING domain)`, “lacZ reporter activity” read 0.
For `B3 (RNF181 RING domain)`, “lacZ reporter activity” read 14900.
`B4 (ZNRF3 RING domain)` — result for “lacZ reporter activity”: 0.

Series 2
Target: ABI1, truncated, D143A, DHFR fusion (Arabidopsis thaliana)
Technique: DHFR PCA, deep sequencing
Medium: yeast
Notes: methotrexate growth selection, single substitutions
Added: (+)-ABA 2500 µM
Reference: wild-type fitted maximum
Reading: higher = stronger binding
Starting sequence: PYL1, truncated, DHFR fusion (Arabidopsis thaliana); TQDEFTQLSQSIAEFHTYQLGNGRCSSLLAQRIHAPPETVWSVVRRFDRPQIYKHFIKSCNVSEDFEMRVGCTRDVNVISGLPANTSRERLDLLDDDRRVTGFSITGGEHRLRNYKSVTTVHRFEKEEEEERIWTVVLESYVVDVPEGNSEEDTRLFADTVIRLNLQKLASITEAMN; partner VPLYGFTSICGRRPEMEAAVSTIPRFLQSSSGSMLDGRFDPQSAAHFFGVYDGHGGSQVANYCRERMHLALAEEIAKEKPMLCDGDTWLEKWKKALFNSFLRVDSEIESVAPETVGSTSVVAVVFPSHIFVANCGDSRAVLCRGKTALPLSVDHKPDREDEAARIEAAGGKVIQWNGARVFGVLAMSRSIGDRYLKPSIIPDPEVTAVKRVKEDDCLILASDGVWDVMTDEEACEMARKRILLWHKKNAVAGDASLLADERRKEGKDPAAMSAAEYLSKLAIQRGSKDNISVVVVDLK
Under “relative binding score”, `Y53V` is recorded as 73.3%.
Under “relative binding score”, `I33E` is recorded as -31.6%.
`G71Y` — result for “relative binding score”: 72%.
`A84S` — result for “relative binding score”: 85.7%.
Under “relative binding score”, `E127Y` is recorded as 99.8%.
`I105W`: “relative binding score” 11.2%.
`E128P`: “relative binding score” 108%.
`R32A`: “relative binding score” 87.6%.
For `N177T`, “relative binding score” read 96.7%.
Under “relative binding score”, `L138Q` is recorded as 85.6%.
`Q51T`: “relative binding score” 93.6%.
For `E125F`, “relative binding score” read 107%.
Under “relative binding score”, `L156G` is recorded as 94.7%.
For `L166G`, “relative binding score” read 36.3%.
For `V143Y`, “relative binding score” read 69.1%.
`G148A`: “relative binding score” 91.3%.
For `T73L`, “relative binding score” read 97.8%.
Under “relative binding score”, `Q31R` is recorded as 96.8%.
For `G148I`, “relative binding score” read 81%.
Under “relative binding score”, `I162Q` is recorded as 32.7%.

Series 3
Target: CCND2, cyclin fold, Cln2 fusion (human)
Technique: yeast growth competition, sequencing
Medium: yeast
Notes: weak parent motif
Reference: not given
Reading: higher = stronger binding
Starting sequence: RB1 docking peptide (human); PKPLKKLRFDIEG
`PKPLKKLRFDPEG [I11P]` — result for “normalised enrichment score”: 0.249.
Under “normalised enrichment score”, `PKPLKKLRFVIEG [D10V]` is recorded as 0.371.
`PKPLKCLRFDIEG [K6C]` — result for “normalised enrichment score”: 0.313.
`PKPLKKLRFDITG [E12T]` — result for “normalised enrichment score”: 0.245.
`EKPLKKLRFDIEG [P1E]` — result for “normalised enrichment score”: 0.482.
For `PKPLKKLRFDFEG [I11F]`, “normalised enrichment score” read 0.192.
`PKPDKKLRFDIEG [L4D]` — result for “normalised enrichment score”: 0.864.
Under “normalised enrichment score”, `PKPLSKLRFDIEG [K5S]` is recorded as 0.32.
Under “normalised enrichment score”, `PKPLKNLRFDIEG [K6N]` is recorded as -0.137.
`PKPLKKLRFGIEG [D10G]` — result for “normalised enrichment score”: 1.04.
`PWPLKKLRFDIEG [K2W]`: “normalised enrichment score” 0.0893.
Under “normalised enrichment score”, `QKPLKKLRFDIEG [P1Q]` is recorded as 0.318.
For `PKPLKKLRFDIEA [G13A]`, “normalised enrichment score” read -0.0545.
Under “normalised enrichment score”, `PKPLKKLRFAIEG [D10A]` is recorded as 0.374.
For `PYPLKKLRFDIEG [K2Y]`, “normalised enrichment score” read 0.457.
For `VKPLKKLRFDIEG [P1V]`, “normalised enrichment score” read 0.237.
`PKPLKHLRFDIEG [K6H]`: “normalised enrichment score” 0.54.
`PKPLKKLRFDIEI [G13I]`: “normalised enrichment score” 0.699.

Series 4
Target: RING finger protein unkempt homolog, zinc fingers 1-6, GST-SBP tag (UNK, Homo sapiens, UniProt Q9C0B0, residues 30-357)
Technique: RNA Bind-n-Seq
Form: RNA
Medium: in vitro
Concentration: not given
Notes: RNA with constant flanks, human and mouse sites, ends assumed
Reference: input RNA pool
Reading: higher = stronger binding
Residues (chain): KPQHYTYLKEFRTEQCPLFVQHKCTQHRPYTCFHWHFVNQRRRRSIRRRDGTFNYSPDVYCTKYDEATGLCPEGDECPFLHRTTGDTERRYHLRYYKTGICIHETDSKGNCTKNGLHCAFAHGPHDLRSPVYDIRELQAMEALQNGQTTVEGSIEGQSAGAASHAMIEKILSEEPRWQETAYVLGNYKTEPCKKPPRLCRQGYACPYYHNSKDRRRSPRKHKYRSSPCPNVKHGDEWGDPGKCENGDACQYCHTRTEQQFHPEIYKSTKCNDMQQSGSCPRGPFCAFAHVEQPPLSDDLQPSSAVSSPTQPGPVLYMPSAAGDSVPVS
For `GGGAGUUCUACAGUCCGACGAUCCUGAAGGAAACAGCAUUUAAAUUUAAAGCCCUAAAGAAGGUUGCGCAGUUAGCAGUUAUAAAUAGCCUGGAAAAGGCAUUUUGGAACUGGGUAGAAAAUUAUCCAGAUGAAUUUACAAAACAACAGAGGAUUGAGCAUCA`, the bound/input enrichment was 1.82 ratio.
`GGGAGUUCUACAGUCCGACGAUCCGCUAUCUGCCUUGGCUUUAUCAUCCCCCCUCUGCAAUGCAGCAAGGACCUAAAGAAUUCAUUGAGUGUGUCUCCCAUAUCCGACUGUUGUCCUGGCUGCUGCUGGGUUCCCUCACUCACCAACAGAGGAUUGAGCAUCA` has a bound/input enrichment of 0.536 ratio.
`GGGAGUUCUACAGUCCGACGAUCGCCAAGCACUACAUGUGUCCCAUCUGUGGUGAGCGCUUCCCUUCGCUGCUGACGCUCACCGAACACAAGGUGACCCACAGCAAGAGCCUGGACACGGGCACCUGUCGCAUCUGCAAGAUGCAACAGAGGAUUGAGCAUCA` gave a bound/input enrichment of 0.0545 ratio.
The bound/input enrichment of `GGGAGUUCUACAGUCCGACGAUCUUUCUUCAGUUAUGGUAGGAGAAACAGAAGCAUCAUCUUCAUCUCAGGAUAAAGACAAAGAUAGCCGUUGUACCCGGCAGCACUGUACAGAAGAGGAUGAAGAAGAGGAUGAAGAGGAAGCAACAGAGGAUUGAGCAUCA` is reported as 0.323 ratio.
For `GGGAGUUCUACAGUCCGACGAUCCGGGCCGGGCCUGCAGGAGCCGGGCCGCCGAGGUCGGGGCUGGUUGAACUCAUGGACCUGAUACUUUUCUCUUGAGAAGCAAACCAGCCCAAAAGAAAAAUGGCGUUUGUUGCAACACAGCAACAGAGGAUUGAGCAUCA`, the bound/input enrichment was 0.123 ratio.
`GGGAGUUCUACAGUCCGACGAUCUUGCUAGGAAAAAUUACAGCUUUGCAAUAUAACAACUGUUUUUGGAUAUUUCUGAAUGUACUAGAACAAAUAAUCAGUCUGUUUUUAAUGAAUCUAUUUGUAUUUUCCCAAUCAUUCCCUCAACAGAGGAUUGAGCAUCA` gave a bound/input enrichment of 0.372 ratio.
`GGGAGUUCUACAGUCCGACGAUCAUUGACCCUAUAUAAAAAAGUGGGCAUUUUGUAACAUUCCUUCAGGAAGAAUAGAAUUGUAUGCUUUUUUCUGCAUGUUUGUGAUCACUGUGAGUCUCAGAUGAUUAUUCCAGUUUUCAACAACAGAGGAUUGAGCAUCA` gave a bound/input enrichment of 0.304 ratio.
The bound/input enrichment of `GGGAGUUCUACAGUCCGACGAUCCAGUUAAGAAAAGGUGUGAGUGAGAUUGGAGAUGCAGCUGACUACGAUGAAGAGCUCUAUGUGGCUGGGAACAUGGUUAUCUGGAGCAAAGGGAGUAAAAGCCAGGCACUGGCAGUGUACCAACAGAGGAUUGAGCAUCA` is reported as 0.47 ratio.

A few entries again (series 1):
For `ALDRLEKLLRCSRCTNILREPVCLGGCEHIFCSNCVSDCIGTGCPVCYTPAWIQDLKI (BARD1 RING domain (UniProt Q99728))`, “lacZ reporter activity” read 0.
For `KEQLEKHNDICAICYQDMKSAVITPCSHFFHAGCLKKWLYVQETCPLCHCHLKNSSQLP (RNF145 RING domain (UniProt Q96MT1))`, “lacZ reporter activity” read 0.
`B1 (Ltn1 RING domain)` — result for “lacZ reporter activity”: 0.
For `QLRRLQEERTCKVCLDRAVSIVFVPCGHLVCAECAPGLQLCPICRAPVRSRVRTF (BIRC7 RING domain (UniProt Q96CA5))`, “lacZ reporter activity” read 0.
For `NTAPSLTVPECAICLQTCVHPVSLPCKHVFCYLCVKGASWLGKRCALCRQEIPEDFLDK (RNF146 RING domain (UniProt Q9NTX7))`, “lacZ reporter activity” read 0.
For `B2 (TRIM48 RING domain)`, “lacZ reporter activity” read 0.
For `B3 (RNF181 RING domain)`, “lacZ reporter activity” read 14900.
`B4 (ZNRF3 RING domain)` — result for “lacZ reporter activity”: 0.
